Assay results of several laboratories.
Every numbered part comes from another study and shows a few of its results, in no order. Positions count from the first letter of the parent shown.

Block 1
Target: RNA binding protein fox-1 homolog 2, RRM domain, GST-SBP tag (RBFOX2, Homo sapiens, UniProt O43251-10, residues 100-194)
Technique: RNA Bind-n-Seq
Form: RNA
Matrix: in vitro
Concentration: 365 nM
Setting: natural RNA segment, single round, ends assumed
Relative to: no-protein control
Direction: higher = stronger binding
Shared flanks, not repeated: GGGAGUUCUACAGUCCGACGAUC … UGGAAUUCUCGGGUGCCAA
Residues (chain): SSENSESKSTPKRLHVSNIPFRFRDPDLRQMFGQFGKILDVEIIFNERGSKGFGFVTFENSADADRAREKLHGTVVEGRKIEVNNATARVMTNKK
| Oligonucleotide | RBNS enrichment (R) |
| --- | --- |
| AGUUCCCACAGCUUGUGUCGUGAAAGAGCAGAGAGAUGAUGUUAAACUCCUUGGGAGGAGAGAGGGCUUCUUUUGGUUUCCCUGGAGUGAGACAGCCAGGUGUCUUUCUU | 1.8 |
| CUCUCCUGCAUGUUGACAUGACGGCCCUUUCCAAGGGUGAUGGAGGCUUUCCCAAGCUAAGGGCCUAGGCAGAUCUCUCAGAGCAAGAAGCUAAUGCCGGCAUGUCCCUU | 8.6 |
| GAGGACAGUUCCAUCCUACCUUUGUCCUUCCCUGGUACAGCCUGUGACCCUGGCACACUGCACAUGCUGAUCUGAGUGGCUCUGCUCACUGUCGCACACCCCUUCCUCUC | 0.728 |
| UAUUAUUCCCCUGCUUCAUGGCUGAAAUAAAAGGUGAUGGUAACUGGGGGCACCCCCUCUCCCUGGGAUAGCCACUGUCGGGGAGCACAGGACCAGCCUCUGGAUCAGUC | 0.383 |
| AGAAGAGUUAACUUGUCAAAGCAGAAUGGUUCUCUUUGACCCACUCUGGUCUAUUGUGUAAAUAUUUAUUUAGACUAUUUUAAUAAUACAUAUUAUUUACCCCACUGUAA | 0.631 |
| AGCAGAGAUGCACAAUAAGCAUUUGUCCAUUUGCUCUUUCCUCAACAGAGGAGAUUAGGAUUUCAAAGAACAAAGAACUGCCCAGUUUCUAUUGGGCUCUUAGACACAGA | 0.341 |
| CUUCUCAGUUAUAAACAUGCUGGCCAGAUCUCUUAGCCUGCAAAGAGAACUUUCCCCAGUCACCAUAGACCAUUCUCCUUCCUGAAGGCUUGGGGCAGACCAUUCGUUUA | 0.349 |
| GUGUCUCUAGAUCCAGGCCUUCAAUGUGACUGGUGAACAGUUCUCCUAUGCUAGCGACUGUGCUGGUUUCUUCUCUCCGGGCAUCUGGAUGGGUCUGCUCACCACCCUCU | 0.664 |

Block 2
Target: CCND3, cyclin fold, Cln2 fusion (human)
Technique: yeast growth competition, sequencing
Matrix: yeast
Setting: weak parent motif
Relative to: not given
Direction: higher = stronger binding
Starting sequence: RBL1 docking peptide (human); GSAKRRLFGEDPP
| Change | normalised enrichment score |
| --- | --- |
| D11L | 0.19 |
| R5N | 0.12 |
| R6F | 0.135 |
| D11E | 0.208 |
| P12C | 0.0788 |
| S2L | 0.159 |
| G1I | 0.219 |
| A3D | 0.0292 |
| G9T | 0.101 |
| P13H | 0.213 |

Block 3
Target: Histone acetyltransferase KAT6A, both winged helices, GST fusion (KAT6A, Homo sapiens, UniProt Q92794, residues 1-181)
Technique: protein binding microarray
Form: double-stranded DNA, one strand shown
Matrix: in vitro
Concentration: not given
Setting: 8-mer, flanks averaged, mean of 2 arrays, mostly near background
Relative to: not given
Direction: higher = stronger binding
Construct (chain): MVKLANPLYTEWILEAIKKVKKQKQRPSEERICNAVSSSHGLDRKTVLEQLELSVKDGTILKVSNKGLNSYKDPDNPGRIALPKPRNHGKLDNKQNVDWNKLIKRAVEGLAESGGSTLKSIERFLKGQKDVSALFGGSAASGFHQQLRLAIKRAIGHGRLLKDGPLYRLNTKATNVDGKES
| Oligonucleotide | E-score |
| --- | --- |
| GGGCGGGA | 0.302 |
| AGCGGGAA | 0.257 |
| AAGGGCGG | 0.16 |
| AGCTCAAG | -0.174 |
| CGTAGAAC | -0.0578 |
| CCGGCAAA | 0.18 |
| ACTCACAT | -0.131 |
| AATGAGGA | -0.186 |
| CCTCCCAA | -0.0516 |
| AGTCAGGG | -0.23 |
| CCTCATAA | -0.124 |
| AAGTTCGC | -0.0662 |

Further values, each from its own experiment
| Substance | target | test | system | setting | how to read | measurement | result |
| --- | --- | --- | --- | --- | --- | --- | --- |
| PhoQ, residues 284 288 289 292 302 303 ALSMDL | PhoP, residues 12 14 15 18 19 LHSVQ (Escherichia coli, UniProt P23836) | Sort-seq, refers to: YFP reporter | E. coli | PhoQ-PhoP variant library, added: 10 µM Mg2+ | relative to: high Mg2+ state, higher = stronger signaling | fold induction | 14.7 |

A few entries again (block 3):
| Oligonucleotide | E-score |
| --- | --- |
| CGTAGAAC | -0.0578 |
| ACTCACAT | -0.131 |
